Published values from different studies.
Every numbered part comes from another study and shows a few of its results, in no order.

Block 1 — method: RNA Bind-n-Seq; form: RNA; medium: in vitro; tested at: not given; notes: RNA with constant flanks, ends assumed; relative to: input RNA pool; reading: higher = stronger binding
Target: RING finger protein unkempt homolog, zinc fingers 1-6, GST-SBP tag (UNK, Homo sapiens, UniProt Q9C0B0, residues 30-357)
Construct (chain): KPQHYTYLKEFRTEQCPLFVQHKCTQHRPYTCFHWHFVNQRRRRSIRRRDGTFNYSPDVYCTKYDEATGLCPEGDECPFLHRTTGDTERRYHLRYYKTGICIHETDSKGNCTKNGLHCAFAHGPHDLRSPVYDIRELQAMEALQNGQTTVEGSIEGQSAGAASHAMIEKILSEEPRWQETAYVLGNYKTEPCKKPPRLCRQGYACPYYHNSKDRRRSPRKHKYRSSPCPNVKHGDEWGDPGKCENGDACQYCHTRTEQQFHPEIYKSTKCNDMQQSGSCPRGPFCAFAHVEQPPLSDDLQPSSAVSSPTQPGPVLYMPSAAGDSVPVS
Sequence	bound/input enrichment
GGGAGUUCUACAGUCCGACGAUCGGAAGUGGAAGAUCCUGUGGAUUCGGAUGGAGAAGUCCUGGGCUUUGAGAACCUCGUCUUCCGCAUUUUUGAGUUUGUCCAUGCCCUACUGGAGAACAGCAAGUUCAAAAGCACCGUUAACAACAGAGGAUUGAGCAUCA	0.234 ratio
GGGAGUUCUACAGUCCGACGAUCUUUGAAGUAAAGACCAUACAUGGGAGCAAGUCAGUGGACUCUGGGAUCUAUCUGGACAGCCGUUACAAAAUGGAUUAUCCUGAAAUGGGCAUAUGCAUAAUAAUUAAUAAUAAGAACUUCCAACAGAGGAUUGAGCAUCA	0.885 ratio
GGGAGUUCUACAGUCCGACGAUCAUAAAGACCGAGCAGUACAAAACAGGUCACCACUCGCCUCGAGGACAAACGUUGGACCGCACCGACCCUGUGGCCAGGGGUCCCAGCCCCCUGAGUUCUCACAUCAGCCCCGGCAGCUCCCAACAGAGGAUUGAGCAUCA	0.107 ratio
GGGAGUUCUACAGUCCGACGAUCUCAGCUUAGGCCUUCCAAGGAACAAUGAAAACUAUGUGCUGGCCAUUUGUUUAUCAGAUUCUCCGUAUAUACUCCUCCCUUCCCACCACCUUCCUGUCAAUUCCAGUACGAGACAGAAGGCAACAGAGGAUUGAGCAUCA	0.259 ratio
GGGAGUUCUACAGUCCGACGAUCGUUGAGCCAGCAAGUCAUGGGAGCAAGGGGUAGAUGGACAGUCCGGCACUACAGAACCGUCACCGGUCUCAAGAGGUCUGGGUGGGAGGUGAAGGGAGAGAACCAAAGCAGAUAGGGAAUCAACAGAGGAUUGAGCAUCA	0.542 ratio
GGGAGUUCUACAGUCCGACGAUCUGUGGCUUUGGUGGGGUCUUAAGUUGUGGUCUGACACACACUGCUGUGGUUCCCCUGGAUUCCGUGAAAUGCCGUAUGCAGGUGGACCCCCAAAAGUACAAGGGCAUAUUUAACGGAUUCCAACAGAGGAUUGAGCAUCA	0.163 ratio
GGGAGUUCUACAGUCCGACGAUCCAACUUGGGGAGGAUAUUCGGCGAAUUCCUAUUCAUAAUGAAGAUAUUACUUAUGAUGAAUCCGUGCUAAUGAUGCAACGAGUUUUCAGAGGAAAACUUCUGAGUAAUGAUGAAGUAACACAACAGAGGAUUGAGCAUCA	0.0798 ratio
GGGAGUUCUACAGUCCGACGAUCCCAAAACUGAAACUGUGGAUGGCAGCCAUGAAGGAAGAUCCCACAGUCUCAGCCCUGCUUACCCGUGAGAAAGACUGGCAAGGUUUCCUAGAGCUCUACUUACAGAACAGCCCUGAGGCCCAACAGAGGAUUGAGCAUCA	0.0921 ratio
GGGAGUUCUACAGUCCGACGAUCCUGGGACCUGAAGGACUUGAACUUAUUGAGAAACUCCUCCAGAACAGAAUUACAAUUGUGGACCGAUUUCUUAAUUCUUCAAAUGAUCAUAGGUUUCAGGCUCUUCAAGACAAUUGUAAACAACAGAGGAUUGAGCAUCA	0.122 ratio
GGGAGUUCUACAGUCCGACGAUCUUUUAAGUGUGUCAUUGCCCUCCCCUGUGGUCAUCUGGGUACCCCUGCCCAUCCAUUGUUUUCCGAACAACCCUAACUGCUUCGGAAAACACUCCCAAGAACUCUAGUGUUGGUUUGUCUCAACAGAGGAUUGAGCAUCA	0.884 ratio

Block 2 — method: protein-binding microarray; form: double-stranded DNA, one strand shown; medium: in vitro; tested at: 2540 nM top; notes: 60-bp whole probe; together with: salmon DNA 0.4 mg/ml; relative to: random background probes; reading: higher = stronger binding; all sequences stand within: GCCTAGCAC … GTCTTGATTCGCTTGACGCTGCTG
Target: Interferon regulatory factor 3, full length, phosphomimetic (IRF3, Homo sapiens, UniProt Q14653, residues 1-427, S386D/S396D/S398D/S402D/T404D/S405D)
Construct (chain): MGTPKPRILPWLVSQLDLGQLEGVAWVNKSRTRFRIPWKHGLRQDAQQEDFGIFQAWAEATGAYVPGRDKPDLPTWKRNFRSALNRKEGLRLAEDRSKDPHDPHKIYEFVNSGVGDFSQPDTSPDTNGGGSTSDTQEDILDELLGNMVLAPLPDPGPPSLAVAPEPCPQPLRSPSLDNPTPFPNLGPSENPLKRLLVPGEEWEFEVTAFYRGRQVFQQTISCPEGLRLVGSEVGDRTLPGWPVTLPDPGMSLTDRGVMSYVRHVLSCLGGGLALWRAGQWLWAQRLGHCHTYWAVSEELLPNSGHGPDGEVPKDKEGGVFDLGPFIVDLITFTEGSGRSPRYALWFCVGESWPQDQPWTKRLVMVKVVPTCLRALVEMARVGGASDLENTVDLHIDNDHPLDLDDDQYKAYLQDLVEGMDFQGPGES
Sequence	fitted relative affinity [z-score]
GACGGTTTCCTTCTACTGACGTGCTAG	7.89
TCAATATTCATTTTATTACTGTGCTAG	1.51
GGCGATTTCAGTTCCGAGACGTGCTAG	2.95
GACGAACTGCGTATCGAGACGTGCTAG	0.0315
TTCTCAACCAGTTTTCTTTTCGTGCTA	3.24
TCGCCTTTTTTGTTGTTTTTGTGCTAG	2.31
GCCGAACTGAGTCTCGAGACGTGCTAG	0.967
TTGGGTATCGGTATCGGTTAGTGCTAG	4.25
TCAATTTTTTTTATCAAACTGTGCTAG	0.491
TCATTTTTCTCACCACATACTGTGCTA	1.89
CTGATCCTTCATTTGAAAGAGTGCTAG	1.1

Block 3 — method: protein binding microarray; form: double-stranded DNA, one strand shown; medium: in vitro; tested at: not given; relative to: not given; reading: higher = stronger binding
Target: Histone acetyltransferase KAT6A, winged helix 1, GST fusion (KAT6A, Homo sapiens, UniProt Q92794, residues 1-85)
Notes: 8-mer, flanks averaged, mean of 2 arrays, mostly near background
Residues (chain): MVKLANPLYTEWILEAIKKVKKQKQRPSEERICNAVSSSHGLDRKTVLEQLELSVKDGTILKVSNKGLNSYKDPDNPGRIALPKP
Sequence	E-score
TCGTTCAA	-0.0923
ACTAATAA	-0.137
TCATACGA	-0.0973
ATGGTCGG	0.11
ATCGAAAG	0.0202
ACAAGGTG	-0.0138
CGGATGAC	0.249
CAACTCAG	-0.175

Block 4 — method: RNA Bind-n-Seq; form: RNA; medium: in vitro; tested at: 200 nM; notes: whole 134-nt RNA, ends assumed; together with: 150 mM LiCl; relative to: input library; reading: higher = stronger binding; library: 7-deaza-guanosine replaces G
Target: Fragile X messenger ribonucleoprotein 1, C-terminal low-complexity region (Fmr1, Mus musculus, UniProt P35922)
Sequence	log2 enrichment
GGGAGUUCUACAGUCCGACGAUCCUCAAGUCCUGUGCUACACAUCGUAUGUACCGAAUCGGGUUUGGGUGGGAGGGAAAGUAUUAUGUUACGCCGUUCGGAUCUGCACUUCCAUGGAAUUCUCGGGUGUCAAGG	-0.513
GGGAGUUCUACAGUCCGACGAUCCCUCAAGUCCUGUGCUACACAUCGUAUGUACCGAAUCGGAGGUGGUUUUUGGAAAGUAUUAUGUUACGCCGUUCGGAUCUGCACUUCCAGUGGAAUUCUCGGGUGUCAAGG	-0.391
GGGAGUUCUACAGUCCGACGAUCUCCUGUGCUACACAUCGUAUGUACCGAAUCGGAAAAAAGGGAAAAAAGGGGAAAAAAGGAAAGUAUUAUGUUACGCCGUUCGGAUCUGCAUGGAAUUCUCGGGUGUCAAGG	-0.665
GGGAGUUCUACAGUCCGACGAUCCUCAAGUCCUGUGCUACACAUCGUAUGUACCGAAUCGGUUGGGGUUGGUUGGGAAAGUAUUAUGUUACGCCGUUCGGAUCUGCACUUCCAUGGAAUUCUCGGGUGUCAAGG	0.0532

For quick reference, copied from above (block 2):
Sequence	fitted relative affinity [z-score]
TCATTTTTCTCACCACATACTGTGCTA	1.89
GACGAACTGCGTATCGAGACGTGCTAG	0.0315
TCAATATTCATTTTATTACTGTGCTAG	1.51
TTCTCAACCAGTTTTCTTTTCGTGCTA	3.24
TCAATTTTTTTTATCAAACTGTGCTAG	0.491
TCGCCTTTTTTGTTGTTTTTGTGCTAG	2.31
